Published values of several laboratories.
Protocols differ between the studies behind these lines. “And” joins repeats or separate records; there may be more than shown. ± gives the spread as reported.

| SMILES | assay | test system | setting | IC50 |
| --- | --- | --- | --- | --- |
| CC[C@H](C)[C@H](NC(=O)[C@H](CO)NC(=O)[C@H](CCCNC(=N)N)NC(C)=O)C(=O)N[C@H]1CSSC[C@@H](C(=O)N[C@H](C(N)=O)[C@@H](C)O)NC(=O)[C@H](CCCNC(=N)N)NC(=O)[C@H](Cc2c[nH]cn2)NC(=O)[C@H](Cc2cccc3ccccc23)NC(=O)CNC(=O)[C@H](Cc2c[nH]c3ccccc23)NC(=O)[C@H](CC(=O)O)NC(=O)[C@H](CCC(N)=O)NC(=O)[C@H](Cc2cccc3ccccc23)NC(=O)[C@H](C(C)C)NC1=O | complement activation, inhibitor, ELISA, refers to: C3b | normal human serum | – | 4.06 ± 0.22 µM |
| COc1cc(/C=N/N=C/c2cc(OC)c(OC)c(OC)c2)cc(OC)c1OC | ferric reducing antioxidant power, FRAP | – | – | > 3000 µM |
| O=S(=O)(Nc1ccccc1)c1cccc2nsnc12 | CoA-CPM signal reduction, CPM fluorescence thiol | cell-free biochemical | assay interference counter-screen, added: CoA replacing acetyl-CoA | > 125 µM |
| CCN(CC)c1ccc(/C=N/c2ccc(F)c(Cl)c2)c(O)c1 | nitric oxide scavenging, sodium nitroprusside | – | – | 69.4 µM |
| O=S1(=O)C=C(SCCN2CCOCC2)c2ccccc21 | CoA-CPM signal reduction, CPM fluorescence thiol | cell-free biochemical | assay interference counter-screen, added: CoA replacing acetyl-CoA | > 125 µM |
| C=CC[C@@]1(C)NC(=O)CNC(=O)[C@H](Cc2c[nH]c3ccccc23)NC(=O)[C@H](CC(=O)O)NC(=O)[C@H](CCC(N)=O)NC(=O)[C@H](Cc2c[nH]c3ccccc23)NC(=O)[C@H](C(C)C)NC(=O)[C@@H](NC(=O)[C@@H](NC(C)=O)[C@@H](C)CC)CSSC[C@@H](C(=O)N[C@H](C(N)=O)[C@@H](C)O)NC(=O)[C@H](CCCNC(=N)N)NC(=O)[C@H](Cc2c[nH]cn2)NC1=O | complement activation, inhibitor, ELISA, refers to: C3b | normal human serum | – | 0.65 ± 0.17 µM |
| Cc1c(CN2CCN(C(=O)[C@H](C)O)CC2)sc2c(N3CCOCC3)nc(-c3cnc(N)nc3)nc12 | refers to: pAkt | patients, metastatic renal cell carcinoma, plasma | – | 0.0191 µg/mL |
| O=C1O[C@H]([C@@H](O)CO)C(O)=C1O | DPPH radical scavenging | – | – | 112 µM |
| O=S(=O)(NCc1ccccc1)c1ccc2nsnc2c1 | CoA-CPM signal reduction, CPM fluorescence thiol | cell-free biochemical | assay interference counter-screen, added: CoA replacing acetyl-CoA | > 125 µM |
| Cc1c(C)c2c(c(C)c1O)CCC(C)(C(=O)O)O2 (stereo not drawn) | antioxidant activity, FRAP | – | – | 98.2 µM |
| O=C(Cc1ccc(Cl)cc1Cl)NNC(=S)N=Cc1ccccc1O | hydroxyl radical scavenging | – | – | 49.8 µM and 28.3 µM |
| O=C1Nc2ccccc2C1=Cc1ccccn1 | platelet aggregation, inhibitor | platelets | added: ADP 5 µM | 7.9 µM |
| COc1ccc2[nH]c3c(c2c1)CCN(C1CC(=O)N(c2ccc(Br)cc2)C1=O)C3 (stereo not drawn) | CoA-CPM signal reduction, CPM fluorescence thiol | cell-free biochemical | assay interference counter-screen, added: CoA replacing acetyl-CoA | > 125 µM |
| CC(=O)N[C@@H](CC(N)=O)C(=O)N[C@@H](CC(N)=O)C(=O)N[C@@H](CC(C)C)C(=O)N[C@H]1CSSC[C@@H](C(=O)N[C@H](C(N)=O)[C@@H](C)O)NC(=O)[C@H](CCCNC(=N)N)NC(=O)[C@H](Cc2c[nH]cn2)NC(=O)[C@H](Cc2cccc3ccccc23)NC(=O)CNC(=O)[C@H](Cc2c[nH]c3ccccc23)NC(=O)[C@H](CC(=O)O)NC(=O)[C@H](CCC(N)=O)NC(=O)[C@H](Cc2c[nH]c3ccccc23)NC(=O)[C@H](C(C)C)NC1=O | complement activation, inhibitor, ELISA, refers to: C5b-9 | normal human serum | – | 1.88 ± 0.09 µM |
| COc1ccccc1C=NC(=S)NNC(=O)Cc1ccc(Cl)cc1Cl | iron chelation | cell-free | EDTA as standard | 23.7 ± 1.01 µM |

Repeated from above:
| SMILES | assay | test system | setting | IC50 |
| --- | --- | --- | --- | --- |
| Cc1c(C)c2c(c(C)c1O)CCC(C)(C(=O)O)O2 (stereo not drawn) | antioxidant activity, FRAP | – | – | 98.2 µM |
